Results collected from several papers.
Numbers after ± are the reported error.
UniProt P21729, sequence (whole entry, looked up): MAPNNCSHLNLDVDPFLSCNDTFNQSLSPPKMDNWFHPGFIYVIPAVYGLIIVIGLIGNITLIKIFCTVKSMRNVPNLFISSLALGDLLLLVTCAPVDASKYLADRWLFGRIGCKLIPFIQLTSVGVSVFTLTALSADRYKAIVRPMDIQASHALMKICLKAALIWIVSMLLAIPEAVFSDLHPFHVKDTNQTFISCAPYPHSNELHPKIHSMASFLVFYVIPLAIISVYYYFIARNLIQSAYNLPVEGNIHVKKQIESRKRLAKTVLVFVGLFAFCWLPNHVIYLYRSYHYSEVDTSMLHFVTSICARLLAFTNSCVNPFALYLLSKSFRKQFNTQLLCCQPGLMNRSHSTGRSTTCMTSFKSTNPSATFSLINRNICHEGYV

CCCC[C@H](NC(=O)CCCCCCCNC(=O)c1ccc(NN)nc1)C(=O)N[C@H]1CC(=O)NCCCC[C@@H](C(N)=O)NC(=O)[C@H](Cc2c[nH]c3ccccc23)NC(=O)[C@H](CCCNC(=N)N)NC(=O)[C@@H](Cc2ccccc2)NC(=O)[C@H](Cc2c[nH]cn2)NC1=O [technetium-99m labelled]  uptake (C57 mouse, B16/F1 melanoma, lung; intravenous, 24 h): 0.14 ± 0.02 %ID/g
N=C(N)NCCC[C@@H]1NC(=O)[C@H](CCCCNC(=O)CCOCCOCCOCCOCCNC(=O)CN2CCN(CC(=O)O)CCN(CC(=O)O)CCN(CC(=O)O)CC2)NC(=O)[C@@H](Cc2ccccc2)NC(=O)[C@H](CC(=O)O)NC(=O)CNC1=O [indium-111 labelled]  tissue uptake (female athymic nude mice, brain; intravenous, 3 µCi, 24 h, U-87 MG glioma xenograft): 0.03 %ID/g
CCCNC(=O)[C@H](CC(C)C)NC(=O)[C@H](Cc1c[nH]cn1)NC(=O)CNC(=O)[C@@H](NC(=O)[C@H](C)NC(=O)[C@H](Cc1c[nH]c2ccccc12)NC(=O)[C@H](CCC(N)=O)NC(=O)[C@@H](Cc1ccccc1)NC(=O)CCCCCNC(=O)CN1CCN(CC(=O)O)CCN(CC(=O)O)CCN(CC(=O)O)CC1)C(C)C [indium-111 labelled]  tissue uptake (Gastrin-releasing peptide receptor (Mus musculus, UniProt P21729); biodistribution; CF-1 mice, liver; intravenous, 1 h, added: bombesin 100 µg, blocking): 0.24 ± 0.01 %ID/g
N=C(N)NCCC[C@@H]1NC(=O)[C@H](CCCCNC(=O)CC[C@H](NC(=O)CCOCCOCCOCCOCCNC(=O)CC[C@H](NC(=O)CN2CCN(CC(=O)O)CCN(CC(=O)O)CCN(CC(=O)O)CC2)C(=O)NCCOCCOCCOCCOCCC(=O)N[C@@H](CCC(=O)NCCCC[C@@H]2NC(=O)[C@@H](Cc3ccccc3)NC(=O)[C@H](CC(=O)O)NC(=O)CNC(=O)[C@H](CCCNC(=N)N)NC2=O)C(=O)NCCCC[C@@H]2NC(=O)[C@@H](Cc3ccccc3)NC(=O)[C@H](CC(=O)O)NC(=O)CNC(=O)[C@H](CCCNC(=N)N)NC2=O)C(=O)NCCCC[C@@H]2NC(=O)[C@@H](Cc3ccccc3)NC(=O)[C@H](CC(=O)O)NC(=O)CNC(=O)[C@H](CCCNC(=N)N)NC2=O)NC(=O)[C@@H](Cc2ccccc2)NC(=O)[C@H](CC(=O)O)NC(=O)CNC1=O [indium-111 labelled]  tissue uptake (female athymic nude mice, kidney; intravenous, 3 µCi, 1 h, U-87 MG glioma xenograft): 6.67 ± 1.01 %ID/g
Cc1ccc(-c2ccccn2)cc1C(=O)NCCCCCCCCNC(=O)CNC(=O)CNC(=O)[C@H](CCCCN)NC(=O)[C@H](CCCCN)NC(=O)[C@@H](N)CCCCN  cellular uptake of iridium (Jurkat; 25 µM, 1 h, 37 °C): 0.97 ± 0.18 fmol/cell
N=C(N)NCCC[C@@H]1NC(=O)[C@H](CCCCNC(=O)CNC(=O)CNC(=O)CNC(=O)CC[C@H](NC(=O)CCOCCOCCOCCOCCNC(=O)CC[C@H](NC(=O)CN2CCN(CC(=O)O)CCN(CC(=O)O)CCN(CC(=O)O)CC2)C(=O)NCCOCCOCCOCCOCCC(=O)N[C@@H](CCC(=O)NCC(=O)NCC(=O)NCC(=O)NCCCC[C@@H]2NC(=O)[C@@H](Cc3ccccc3)NC(=O)[C@H](CC(=O)O)NC(=O)CNC(=O)[C@H](CCCNC(=N)N)NC2=O)C(=O)NCC(=O)NCC(=O)NCC(=O)NCCCC[C@@H]2NC(=O)[C@@H](Cc3ccccc3)NC(=O)[C@H](CC(=O)O)NC(=O)CNC(=O)[C@H](CCCNC(=N)N)NC2=O)C(=O)NCC(=O)NCC(=O)NCC(=O)NCCCC[C@@H]2NC(=O)[C@@H](Cc3ccccc3)NC(=O)[C@H](CC(=O)O)NC(=O)CNC(=O)[C@H](CCCNC(=N)N)NC2=O)NC(=O)[C@@H](Cc2ccccc2)NC(=O)[C@H](CC(=O)O)NC(=O)CNC1=O [indium-111 labelled]  tissue uptake (female athymic nude mice, brain; intravenous, 3 µCi, 24 h, U-87 MG glioma xenograft): 0.04 ± 0.01 %ID/g
CC(=O)N[C@@H](CCCCN)C(=O)N[C@@H](CS)C(=O)N[C@@H](CS)C(=O)N[C@@H](Cc1ccc(O)cc1)C(=O)N[C@@H](CO)C(=O)N[C@@H](CC(C)C)C(=O)NCC(=O)NCC(=O)NCC(=O)N[C@@H](CO)C(=O)N[C@@H](CO)C(=O)N[C@@H](CCCCN)C(=O)N[C@@H](Cc1ccc(O)cc1)C(=O)N[C@@H](CCC(N)=O)C(=O)N[C@@H](CO)C(=O)N[C@@H](CC(C)C)C(=O)OCCN(c1ccccc1)C(C)c1cc(C)cn2c(=O)cc(N3CCOCC3)nc12 (stereo partly drawn)  time to uptake equilibrium (LNCaP; LC-MS/MS): < 10 min
CCCC[C@H](NC(=O)CNC(=O)CNC(=O)c1ccc(NN)nc1)C(=O)N[C@H]1CC(=O)NCCCC[C@@H](C(N)=O)NC(=O)[C@H](Cc2c[nH]c3ccccc23)NC(=O)[C@H](CCCNC(=N)N)NC(=O)[C@@H](Cc2ccccc2)NC(=O)[C@H](Cc2c[nH]cn2)NC1=O [technetium-99m labelled]  tissue uptake ratio (C57 mouse, B16/F1 melanoma-bearing; intravenous, 2 h; reference: tumour over muscle): 354
CSCC[C@H](NC(=O)[C@H](CC(C)C)NC(=O)[C@H](Cc1c[nH]cn1)NC(=O)CNC(=O)[C@@H](NC(=O)[C@H](C)NC(=O)[C@H](Cc1c[nH]c2ccccc12)NC(=O)[C@H](CCC(N)=O)NC(=O)CCCCCNC(=O)CNC(=O)CNC(=O)CNC(=O)CSC(C)=O)C(C)C)C(N)=O [technetium-99m labelled]  tissue uptake (Swiss mouse, pancreas; intravenous, 18.5 MBq, 5 min): 6.58 ± 1.67 %ID/g

For quick reference, copied from above:
CSCC[C@H](NC(=O)[C@H](CC(C)C)NC(=O)[C@H](Cc1c[nH]cn1)NC(=O)CNC(=O)[C@@H](NC(=O)[C@H](C)NC(=O)[C@H](Cc1c[nH]c2ccccc12)NC(=O)[C@H](CCC(N)=O)NC(=O)CCCCCNC(=O)CNC(=O)CNC(=O)CNC(=O)CSC(C)=O)C(C)C)C(N)=O [technetium-99m labelled]  tissue uptake (Swiss mouse, pancreas; intravenous, 18.5 MBq, 5 min): 6.58 ± 1.67 %ID/g
